Measurements pooled from the literature.
Each line is one published result; not all experiments were run side by side.

Molecule | cell line | assay | setting | scale | inhibition
CCn1c(-c2ccc(Br)cc2)cs/c1=N/N=C(\C)c1ccccn1 | MCF7 | cell growth or viability, SRB | 100 µg/mL, 48 h | – | 47.8%
CCCCc1ccc(S(=O)(=O)Oc2ccc(NC(=O)c3ccc(C)cc3)cc2)cc1 | HeLa | cell growth or viability, MTT | 100 µM, 24 h | – | 19.1%
CCN(CC)CC1CCN(c2ncc3ncnc(Nc4ccc(F)c(Cl)c4)c3n2)CC1.Cl.Cl | A549 EGFR reporter cells | EGFR-induced granule formation | 10 µM, with: 500 nM EGF | negative means activation | 98%
Cc1ccc(C(=O)Nc2ccc(OS(=O)(=O)c3ccc(I)cc3)cc2)cc1 | HeLa | cell growth or viability, MTT | 100 µM, 24 h | – | > 50%
methyl-β-cyclodextrin | MDCK | nanoparticle endocytosis | 10 mM, 30 min pretreatment | – | 68.9%
COc1ccccc1-c1cc(-c2cccc(Br)c2)nc(N)c1C#N | HT-29 | cell growth or viability | 50 µM | – | ≤ 50%
Cc1ccc(C(=O)Nc2ccc(OS(=O)(=O)c3ccccc3F)cc2)cc1 | HeLa | cell growth or viability, MTT | 100 µM, 24 h | – | 14.3%
CCn1c(C)c(/N=N/c2ccc(Cl)cc2)s/c1=N/N=C(\C)c1ccccn1 | MCF7 | cell growth or viability, SRB | 100 µg/mL, 48 h | – | 53.7%
O=C(Nc1ccc(OS(=O)(=O)c2ccc(-c3ccccc3)cc2)cc1)c1ccccc1 | HeLa | cell growth or viability, MTT | 100 µM, 24 h | – | 5.3%
CC(C)Oc1ccc(S(=O)(=O)c2ccc(Oc3cc(OCC(N)=O)c(C(=O)C(Cl)Cl)cc3[N+](=O)[O-])cc2)cc1 | NCI-H1299 | cell growth or viability, MTT | 2.5 µM | – | > 95%
CC(=O)C1S/C(=N/N=C(\C)c2ccccn2)NC1=O (stereo not drawn) | MCF7 | cell growth or viability, SRB | 100 µg/mL, 48 h | – | 66.2%
N#Cc1c(-c2ccccc2Cl)cc(-c2ccccc2Br)[nH]c1=O | HT-29 | cell growth or viability | 50 µM | – | 81%
CCN1C(=O)C(C)S/C1=N/N=C(\C)c1ccccn1 (stereo not drawn) | MCF7 | cell growth or viability, SRB | 100 µg/mL, 48 h | – | 64.7%
O=C(NC(=S)Nc1ccc(-c2nc3ccccc3o2)cc1)c1ccc2ccccc2c1 | SW480 cells overexpressing claudin-1 | anchorage-independent growth, soft agar colony formation | 25 µM | relative to: untreated | 65 to 70%
Cc1ccc(C(=O)Nc2ccc(OS(=O)(=O)c3ccc(-c4ccccc4)cc3)cc2)cc1 | HeLa | cell growth or viability, MTT | 100 µM, 24 h | – | 48.2%

Excerpt of the above:
Molecule | cell line | assay | setting | scale | inhibition
Cc1ccc(C(=O)Nc2ccc(OS(=O)(=O)c3ccc(-c4ccccc4)cc3)cc2)cc1 | HeLa | cell growth or viability, MTT | 100 µM, 24 h | – | 48.2%
CC(=O)C1S/C(=N/N=C(\C)c2ccccn2)NC1=O (stereo not drawn) | MCF7 | cell growth or viability, SRB | 100 µg/mL, 48 h | – | 66.2%
